Published values of several laboratories.
Every numbered part comes from another study and shows a few of its results, in no order.

Set 1
Target: Interferon regulatory factor 5, full length, phosphomimetic (IRF5, Homo sapiens, UniProt Q13568-2, residues 1-514, K96S/S451D/S453D/S456D/S462D)
Method: protein-binding microarray
Molecule type: double-stranded DNA, one strand shown
Sample: in vitro
Concentration: 250 nM
Notes: 60-bp whole probe
Added: salmon DNA 0.4 mg/ml
Reference: random background probes
Reading: higher = stronger binding
Sequence	log fluorescence [z-score]
GCCTAGCACGACGGTCTCTGACTGGGGACGTGCTAGGTCTTGATTCGCTTGACGCTGCTG	-0.421
GCCTAGCACTTAGGTATCGACTATGGGTTAGTGCTAGTCTTGATTCGCTTGACGCTGCTG	3.22
GCCTAGCACTTAGGGCTGGACACTGGGTTAGTGCTAGTCTTGATTCGCTTGACGCTGCTG	-0.758
GCCTAGCACGCCAAAAGTGTAAATGTAAGGTGCTAGGTCTTGATTCGCTTGACGCTGCTG	0.116

Set 2
Target: TAR DNA-binding protein 43, full length, His tag (TARDBP, Homo sapiens, UniProt Q13148, residues 1-414)
Method: RNA Bind-n-Seq
Molecule type: RNA
Sample: in vitro
Concentration: 20 nM
Notes: 6-mer, flanks averaged, single round
Added: 150 mM LiCl
Reference: input library
Reading: higher = stronger binding
Sequence	6-mer enrichment (R)
GGGAUA	1.01
CUAGAG	0.889
GCACGG	0.975
UAUAAU	1.11
CAGUUG	0.979
AGGAAU	0.889

Set 3
Target: RNA binding protein fox-1 homolog 2, RRM domain, GST-SBP tag (RBFOX2, Homo sapiens, UniProt O43251-10, residues 100-194)
Method: RNA Bind-n-Seq
Molecule type: RNA
Sample: in vitro
Concentration: 365 nM
Notes: natural RNA segment, single round, ends assumed
Reference: no-protein control
Reading: higher = stronger binding
All sequences stand within: GGGAGUUCUACAGUCCGACGAUC … UGGAAUUCUCGGGUGCCAA
Construct (chain): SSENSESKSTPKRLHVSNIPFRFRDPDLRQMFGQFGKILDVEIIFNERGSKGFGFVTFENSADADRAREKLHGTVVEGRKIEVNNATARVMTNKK
Sequence	RBNS enrichment (R)
AAUCAACCAUUUUUCAAGGCACUCGAUCAGUGUUGCAGCAUAACAGAAAGUACAGCUACUGUGCCUUGUGUUACUUAUUUACACAGUUAGCAGGCCUGGAAAUGAAUGGA	0.277
CCAGGGCCCCACCCUGGGCUGGACAAUCAGAUCCCAAAGGAAUGCCAAAGGGGACUCGGUUGGGAGAGCCGCUUAGGGGCCAGACCUGGGUCCCCCUGCAGGUCCCCAGG	0.764
UUUAAUUUAAAUGACGCUUUGCUAAUUUUAAGUGUUAAGCAUUUUGCAUUAAAAUAUUCAUAUAAUAUUUUGGCUCAGUUUAUUGGCAUUAUCCUCUCAUUGUGGUUUCA	0.999
UAUGUUCAAUAUUUGUAUUUGUGUUCUCUUUUGUUAUUUUUAAUUAGGGUAUAUGAAUAUUUUGCAAUAAUUUUAAUAAUUAUUAAGCUGUUUGAAGGAAAGAAUAUGGA	0.875
CAUCUUUCUGCCUGUCACCGGGUGUGCUGUUUUUCUGAAAAAAAAACAGGCCCCAAGGGCCCUGAGCCUCCAGCCCAAACCCUUAGACCUCUGGGAUCACGUUGAGUUCU	0.234
AUUUAGUACUGAAACAUGCUCUUUUACCUAACAGUAAACAAGUAUGUUUUGAUAUAUAUCUGUUAAUAUGCUUAUAGUGGUAAGAAAUGGACUUGAGGUCCCAGGAGAUU	0.309

Mixed results
Substance	target	test	test system	conditions	scale	endpoint	value
PhoQ, residues 284 288 289 292 302 303 ASASEQ	PhoP, residues 12 14 15 18 19 TPWLV (Escherichia coli, UniProt P23836)	Sort-seq, item: YFP reporter	E. coli	PhoQ-PhoP variant library, added: 10 µM Mg2+	reference: high Mg2+ state, higher = stronger signaling	fold induction	0.759

Excerpt of the above (set 1):
Sequence	log fluorescence [z-score]
GCCTAGCACGCCAAAAGTGTAAATGTAAGGTGCTAGGTCTTGATTCGCTTGACGCTGCTG	0.116
